Results gathered from unrelated publications.
Numbered parts are unrelated; each lists some results of a single study.

Sample 1
Target: Histone acetyltransferase KAT6A, winged helix 1, GST fusion (KAT6A, Homo sapiens, UniProt Q92794, residues 1-85)
Method: protein binding microarray
Molecule type: double-stranded DNA, one strand shown
Medium: in vitro
Concentration: not given
Setting: 8-mer, flanks averaged, mean of 2 arrays, mostly near background
Baseline: not given
Direction: higher = stronger binding
Target sequence (chain): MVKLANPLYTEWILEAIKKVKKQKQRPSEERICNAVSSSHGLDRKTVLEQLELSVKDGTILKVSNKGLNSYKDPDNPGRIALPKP
| Sequence | E-score |
| --- | --- |
| CCAGCAGA | -0.179 |
| AAACTCAA | -0.152 |
| CCAGTCTA | -0.0805 |
| GCAACACC | 0.111 |
| AAAATCAA | -0.157 |
| TCATAACA | -0.214 |
| ACACGTAG | -0.144 |
| CCAGGAGA | -0.285 |
| CAATCCGA | 0.047 |
| ATTCCCAC | -0.218 |
| CTGATTTC | -0.199 |
| GACACGAA | -0.0964 |
| CAGCATGC | 0.00436 |
| GTAGGCAA | -0.241 |
| GACTGTCA | 0.0373 |
| AACAGCAT | -0.0743 |
| GGGAGTAA | -0.0262 |
| ATGCTCCA | -0.151 |
| CACGGAAC | 0.293 |
| ATTGCTTG | -0.118 |
| AAACCACA | -0.119 |
| CTTTGAAC | -0.167 |

Sample 2
Target: Sal-like protein 4, full length isoform A (SALL4, Homo sapiens, UniProt Q9UJQ4, residues 1-1053)
UniProt Q9UJQ4, sequence (whole entry, looked up): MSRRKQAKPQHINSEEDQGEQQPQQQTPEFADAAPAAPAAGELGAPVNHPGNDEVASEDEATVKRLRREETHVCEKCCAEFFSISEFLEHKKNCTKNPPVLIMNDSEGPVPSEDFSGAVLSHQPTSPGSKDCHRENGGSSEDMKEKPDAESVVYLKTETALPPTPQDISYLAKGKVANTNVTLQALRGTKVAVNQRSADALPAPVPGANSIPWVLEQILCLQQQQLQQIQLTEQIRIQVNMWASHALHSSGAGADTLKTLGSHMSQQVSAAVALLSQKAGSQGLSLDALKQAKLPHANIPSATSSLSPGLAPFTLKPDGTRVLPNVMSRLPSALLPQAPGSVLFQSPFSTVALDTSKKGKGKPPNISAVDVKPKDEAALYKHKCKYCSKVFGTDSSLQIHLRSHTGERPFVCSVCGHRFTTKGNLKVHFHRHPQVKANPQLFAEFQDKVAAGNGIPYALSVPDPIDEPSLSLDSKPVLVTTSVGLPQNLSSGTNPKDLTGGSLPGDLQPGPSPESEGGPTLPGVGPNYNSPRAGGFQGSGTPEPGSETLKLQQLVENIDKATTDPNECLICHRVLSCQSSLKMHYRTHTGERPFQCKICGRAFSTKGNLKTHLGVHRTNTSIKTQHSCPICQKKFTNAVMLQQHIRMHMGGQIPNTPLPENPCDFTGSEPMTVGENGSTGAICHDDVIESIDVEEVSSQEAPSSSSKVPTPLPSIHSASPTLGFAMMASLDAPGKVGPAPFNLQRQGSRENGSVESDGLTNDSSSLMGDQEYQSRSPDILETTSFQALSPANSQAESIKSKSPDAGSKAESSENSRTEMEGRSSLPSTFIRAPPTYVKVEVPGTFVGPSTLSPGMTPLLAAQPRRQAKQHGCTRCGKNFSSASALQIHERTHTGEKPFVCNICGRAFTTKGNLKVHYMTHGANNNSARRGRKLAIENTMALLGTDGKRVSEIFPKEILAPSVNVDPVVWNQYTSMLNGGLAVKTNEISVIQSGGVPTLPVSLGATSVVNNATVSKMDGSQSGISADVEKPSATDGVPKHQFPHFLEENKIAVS
Method: universal PBM
Molecule type: double-stranded DNA, one strand shown
Medium: in vitro
Concentration: 600 nM
Setting: 8-mer, flanks averaged, mean of replicates
Direction: higher = stronger binding
| Sequence | E-score |
| --- | --- |
| CGGCTTAG | -0.194 |
| CAGGCGTA | -0.0122 |
| ACGGCGAG | -0.227 |
| TCAAGAAA | 0.195 |
| CTGGTCTC | -0.257 |
| AGGAGGAT | -0.0671 |
| CAAGAAAG | 0.0371 |
| GGCGGTAA | -0.13 |
| AATCAGGG | -0.0881 |
| CACGGATG | -0.041 |
| AACTCCTG | -0.0877 |
| CTCACTGC | -0.12 |
| CAAATAAA | 0.259 |
| GATAAACC | 0.0748 |
| AAGCCATT | 0.156 |
| CATAAGAA | 0.311 |
| AAACGCTA | 0.0348 |
| ATGTGCTC | 0.0624 |
| ATCCCGTC | -0.156 |
| AATCACCT | 0.17 |
| TATGTTGA | 0.32 |
| AAAGTAGG | 0.132 |
| ACTTTGGG | -0.0704 |
| CCGATGGA | -0.196 |
| CCGCGTCA | -0.274 |

Sample 3
Target: RNA binding protein fox-1 homolog 2, RRM domain, GST-SBP tag (RBFOX2, Homo sapiens, UniProt O43251-10, residues 100-194)
Method: RNA Bind-n-Seq
Molecule type: RNA
Medium: in vitro
Concentration: 365 nM
Setting: natural RNA segment, single round, ends assumed
Baseline: no-protein control
Direction: higher = stronger binding
Constant ends, left off below: GGGAGUUCUACAGUCCGACGAUC … UGGAAUUCUCGGGUGCCAA
Construct (chain): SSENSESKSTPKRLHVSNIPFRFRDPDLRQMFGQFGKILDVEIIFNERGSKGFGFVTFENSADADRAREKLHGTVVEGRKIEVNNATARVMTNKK
| Sequence | RBNS enrichment (R) |
| --- | --- |
| GGAUCAGGGAACUAAGCAUUAUGUGAAUUCACCAGCAAGAUGUACAGAACGCCUGUGUUUACAUUGUUUUUAUGGAACUAGCAGAAUAAAACAUCUAUUUUAAAAAUGAA | 0.74 |
| CCGUUUAACCUCCGAGAUGAGCUGCUCAGACUCUACAGCAUGACGACUACAAUUUCUUUUCAUAAAACUUCUUCUCUUCUUGGAAUUAUUAAUUCCUAUCUGCUUCCUAG | 3.22 |
| UUUUUAAUUUUGAUUCAGAAGUAGUCCCAGCUCAUAGGUGUUCAUACUGUUACAUCCAGAACAUUUGUCAGGCUCUCUGUCAGCUUUCAUGUACAUAUGGUAUAGAAACC | 0.265 |
| AUGAGUUCGAAACCAGCCUGGCCAAAACAGUGAAACCCCGUCUCUACUAAAAAUACAAAAUUAGCCAGAUGUGGUGGCGCACACCUGUAAUCCCAGCUACUCAGGAAGCU | 0.421 |
| UGAAAACGCCUCUUGCCUAUGUUAGUUACCCAUUCUCAACACUGGGCCAUGGCUGCAGAUGGAAUUGGAAAGUAAAAUAUUUGUGGCUGAGCCUCUUUAGUCUUCCCUGA | 0.233 |
| CUUUAGCCCCUUCAUUUUGAAUAUGAUGCCACAUAUGAAUGUUGAAGCUGAUACAUUGCACAAUUCUCUAGACACCACUCACUACACUAAUGCAGUUUUUCAAAUUCUAG | 0.596 |
| UGGGCAUAUCUUGUUGUUCAGUUUGGGUGUCUGCUAAAGAGGAAGUGCACUGGCCCUCUUUGAAAGGGCUUUACAGUGGGGGCACCAAGACCCCAAAGGGCCCAGGCCAG | 0.571 |
| AUGCUCUUUCCCAGGACGGAUGGGCCCUAUGUCUCAGGAGUGGGGUUGGGGGACAGCCUUCAGCAGCAGCUCACACCCUACCUUCCCCAGACUUGCACUGGGGUGGGAUU | 0.342 |
| UCACAGUGCACCAUGUCACUGUGCUAUCCUACGAAAUCAUUUGUUUCUAAGUUGUGUUUAUUCCUGGAGUGACAUGCCACCCCGAAUGGCUCACUUUCACUGAGGAUGCU | 0.307 |
| GCCUCAUUUGCAAGAUGUGCAAGCUUAAUGUCUUCUUCACCAUAAAGCAACAUGGAAAUAACCAUAGACAAAACUUAUUUGGGUAACUAGAAACCAAUGAGCUUUAGAUU | 0.463 |
| ACUUCACUGUCCAUGGGUCCUAGACAGGCCUGCAGGCAGGCAGGGUGCACACGCCUUCCUUCCCUCCCAGGCACUCCACGGAGUCAUCUUGGGUCUCCUGGGAUUCUAGG | 0.187 |
| UGAAGAUGUGAAUGGGUGGUACGAUUUCAACACUGGUUAAUUUCACACUCCAUCUCCCCGCUUUGUAAAUACCCAUCGGGAAGAGACUUUUUUUCCAUGGUGAAGAGCAA | 0.313 |

Sample 4
Target: Interferon regulatory factor 7, full length, phosphomimetic (IRF7, Homo sapiens, UniProt Q92985, residues 1-503, S101K/S471D/S472D/S475D/S476D/S477D/S483D/S484D/S487D)
UniProt Q92985, sequence (whole entry, unmodified, looked up): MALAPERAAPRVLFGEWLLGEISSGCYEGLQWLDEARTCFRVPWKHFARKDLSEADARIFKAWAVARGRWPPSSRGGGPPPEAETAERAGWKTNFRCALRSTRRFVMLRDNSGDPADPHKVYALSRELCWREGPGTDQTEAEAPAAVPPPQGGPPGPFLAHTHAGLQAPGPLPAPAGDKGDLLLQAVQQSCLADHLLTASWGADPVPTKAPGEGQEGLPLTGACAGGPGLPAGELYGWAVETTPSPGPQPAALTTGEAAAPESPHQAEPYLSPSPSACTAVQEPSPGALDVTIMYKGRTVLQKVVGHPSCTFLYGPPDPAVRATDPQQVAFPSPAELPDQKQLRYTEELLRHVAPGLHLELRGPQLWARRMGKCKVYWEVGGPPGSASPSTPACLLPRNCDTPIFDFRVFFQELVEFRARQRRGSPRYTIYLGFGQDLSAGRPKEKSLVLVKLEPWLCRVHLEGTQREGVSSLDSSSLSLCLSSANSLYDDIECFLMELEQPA
Method: protein-binding microarray
Molecule type: double-stranded DNA, one strand shown
Medium: in vitro
Concentration: 250 nM
Setting: 60-bp whole probe
With: salmon DNA 0.4 mg/ml
Baseline: random background probes
Direction: higher = stronger binding
Constant ends, left off below: GCCTAGCAC … GTCTTGATTCGCTTGACGCTGCTG
| Sequence | log fluorescence [z-score] |
| --- | --- |
| TTAGAATTGAGACTGGATTAGTGCTAG | 0.00141 |
| GACGGACTGGACTTGCGGGACGTGCTA | -0.96 |
| GACGGTTCCCGTTTCCTGACGTGCTAG | 4.03 |
| TATGGTATTTTTTTGTAATCGTGCTAG | 0.383 |
| GACGATTTTAGTTCCGAGACGTGCTAG | 0.746 |
| TTAGGTTTCAGTTTCGGTTAGTGCTAG | 11.4 |
| TTATATTTCAGTCTCGATTAGTGCTAG | 2.61 |
| GACGGTATCGGTCTCTGGACGTGCTAG | 0.615 |
| TCAGAAATTCCTCTGAAACTGTGCTAG | 0.23 |
| GACGGTTTCGGTTCCCGGACGTGCTAG | 13.6 |
| TTATGACTGCTACTGCTTTAGTGCTAG | -0.671 |
| TCAATTTTGGTTTTCCTACTGTGCTAG | 1.08 |
| TCAAGTTTCATTCCTGAACTGTGCTAG | 2.05 |
| GACGGTTTCGGGTTTCGGCACGTGCTA | 11.3 |
| TTAGGTTTCGGACTGGGTTCGTGCTAG | 3.71 |
| GACGATTCCCGTTTCGAGACGTGCTAG | 4.62 |
| GACGGTTTCGACACTGGGGACGTGCTA | 3.82 |
| GACGAACTGAGTCTAGAGACGTGCTAG | -0.294 |
| GACGAAATCAGTTTCGAGACGTGCTAG | 4.66 |
| TACTCTCTCCATGTGTTTAAGTGCTAG | 0.923 |
| GGCGGTTTCCTTCTCCTGACGTGCTAG | 2.04 |
| TTAGTTTTCGACTTTCGGTTAGTGCTA | 6.04 |
| TTAGGTATCGGGTATCGCTTAGTGCTA | 1.29 |
| GACGGTATCCGGTATCGGGACGTGCTA | 0.108 |
| TTAGATCTCAGTTTCGATTCGTGCTAG | 12.1 |

Sample 5
Target: Transcription factor SOX-2, HMG box (Sox2, Mus musculus, UniProt P48432, residues 41-119)
UniProt P48432, sequence (41-119, looked up): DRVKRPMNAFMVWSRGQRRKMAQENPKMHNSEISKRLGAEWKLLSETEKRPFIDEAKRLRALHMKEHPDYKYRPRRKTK
Method: Spec-seq
Molecule type: double-stranded DNA, one strand shown
Medium: in vitro
Concentration: not given
Setting: whole probe, mean of replicates
Baseline: not given
Direction: lower = stronger binding
Constant ends, left off below: GAGTCGTCTCGTCAGCAC … CCGTAGAGCACTCAGGTC
| Sequence | relative binding energy |
| --- | --- |
| CATGTTG | 0.564 ln ratio |
| ACTAGTT | -0.438 ln ratio |
| CATAGAG | -1.01 ln ratio |
| CATTCTG | -0.553 ln ratio |
| CATCCTT | 0.696 ln ratio |
| ATGGGTT | 0.856 ln ratio |
| ACCAGTT | 0.17 ln ratio |
| TCAGGTT | 0.879 ln ratio |
| TGGTGTT | 0.593 ln ratio |
| TGAAGTT | 0.578 ln ratio |
| AGCCGTT | 0.862 ln ratio |
| ACGAGTT | 0.648 ln ratio |
| CGATGTT | 0.599 ln ratio |
| CATCGAC | 0.714 ln ratio |
| TACGGTT | 0.734 ln ratio |

Repeated from above (sample 2):
| Sequence | E-score |
| --- | --- |
| TCAAGAAA | 0.195 |
| CTGGTCTC | -0.257 |
| AGGAGGAT | -0.0671 |
| CAAGAAAG | 0.0371 |
| GGCGGTAA | -0.13 |
| AATCAGGG | -0.0881 |
| CACGGATG | -0.041 |
| AACTCCTG | -0.0877 |
| CTCACTGC | -0.12 |
| CAAATAAA | 0.259 |
| GATAAACC | 0.0748 |
| AAGCCATT | 0.156 |
| CATAAGAA | 0.311 |
| AAACGCTA | 0.0348 |
| ATGTGCTC | 0.0624 |
| ATCCCGTC | -0.156 |
